# Measured values pooled from the literature.
# Lines come from different studies, so protocols differ. Values joined by “and” are separate records of one study, mostly repeats; a detail may differ. ± gives the spread as reported.
# SPT15/TOA1/TOA2/SUA7 1-240; 1-286; 1-122; 1-345: SPT15/TOA1/TOA2/SUA7 1-240; 1-286; 1-122; 1-345 (Saccharomyces cerevisiae)
# Fibroin-modulator-binding protein-1: Fibroin-modulator-binding protein-1 99-193 (Bombyx mori, UniProt Q5FBS0)
# Chain of UniProt P48067 (whole entry, looked up): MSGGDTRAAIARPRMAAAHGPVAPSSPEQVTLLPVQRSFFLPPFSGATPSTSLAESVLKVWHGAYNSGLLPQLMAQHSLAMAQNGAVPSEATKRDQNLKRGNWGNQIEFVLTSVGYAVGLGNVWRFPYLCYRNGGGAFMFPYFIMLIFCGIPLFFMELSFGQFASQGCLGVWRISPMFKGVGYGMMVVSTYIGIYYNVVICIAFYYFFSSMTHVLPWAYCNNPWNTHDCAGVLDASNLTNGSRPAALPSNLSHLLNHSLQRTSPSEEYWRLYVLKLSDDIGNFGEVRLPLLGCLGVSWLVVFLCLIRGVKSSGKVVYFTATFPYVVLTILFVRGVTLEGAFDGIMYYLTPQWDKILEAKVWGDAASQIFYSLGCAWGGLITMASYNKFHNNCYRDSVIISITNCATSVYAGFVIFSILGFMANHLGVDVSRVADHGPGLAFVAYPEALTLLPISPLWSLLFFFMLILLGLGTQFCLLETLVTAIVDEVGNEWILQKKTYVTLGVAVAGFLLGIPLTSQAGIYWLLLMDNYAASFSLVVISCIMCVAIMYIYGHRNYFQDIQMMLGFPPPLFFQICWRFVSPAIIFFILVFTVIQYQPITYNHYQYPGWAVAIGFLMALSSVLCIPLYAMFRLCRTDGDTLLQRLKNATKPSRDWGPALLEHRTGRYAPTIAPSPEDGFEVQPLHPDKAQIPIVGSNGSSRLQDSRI
# Chain of UniProt Q64663 (whole entry, unmodified, looked up): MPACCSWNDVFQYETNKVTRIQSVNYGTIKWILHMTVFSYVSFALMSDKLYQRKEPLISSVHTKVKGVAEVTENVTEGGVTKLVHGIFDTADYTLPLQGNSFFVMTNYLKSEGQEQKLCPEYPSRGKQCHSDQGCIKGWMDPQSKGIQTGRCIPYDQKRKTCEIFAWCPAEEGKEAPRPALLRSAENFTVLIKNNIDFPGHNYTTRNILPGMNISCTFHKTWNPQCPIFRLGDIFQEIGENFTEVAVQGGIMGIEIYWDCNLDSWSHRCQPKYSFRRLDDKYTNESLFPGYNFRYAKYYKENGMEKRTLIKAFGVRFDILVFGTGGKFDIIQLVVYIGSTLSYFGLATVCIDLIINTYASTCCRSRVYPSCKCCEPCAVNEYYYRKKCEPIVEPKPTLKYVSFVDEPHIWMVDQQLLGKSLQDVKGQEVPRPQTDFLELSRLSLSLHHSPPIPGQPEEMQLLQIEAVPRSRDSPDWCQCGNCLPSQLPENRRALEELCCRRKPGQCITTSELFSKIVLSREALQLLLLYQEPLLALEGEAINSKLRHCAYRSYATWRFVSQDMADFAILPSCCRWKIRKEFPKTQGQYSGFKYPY
# Chain of UniProt P27695 (whole entry, looked up): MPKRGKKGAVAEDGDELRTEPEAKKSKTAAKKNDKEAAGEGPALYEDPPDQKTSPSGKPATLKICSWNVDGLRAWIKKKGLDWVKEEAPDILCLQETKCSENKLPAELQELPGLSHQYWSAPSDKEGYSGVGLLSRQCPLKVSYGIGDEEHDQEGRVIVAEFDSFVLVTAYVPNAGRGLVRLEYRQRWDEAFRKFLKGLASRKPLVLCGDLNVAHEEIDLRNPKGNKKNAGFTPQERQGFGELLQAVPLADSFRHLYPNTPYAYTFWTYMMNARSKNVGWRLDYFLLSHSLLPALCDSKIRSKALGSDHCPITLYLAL
# Chain of UniProt P46063 (whole entry, looked up): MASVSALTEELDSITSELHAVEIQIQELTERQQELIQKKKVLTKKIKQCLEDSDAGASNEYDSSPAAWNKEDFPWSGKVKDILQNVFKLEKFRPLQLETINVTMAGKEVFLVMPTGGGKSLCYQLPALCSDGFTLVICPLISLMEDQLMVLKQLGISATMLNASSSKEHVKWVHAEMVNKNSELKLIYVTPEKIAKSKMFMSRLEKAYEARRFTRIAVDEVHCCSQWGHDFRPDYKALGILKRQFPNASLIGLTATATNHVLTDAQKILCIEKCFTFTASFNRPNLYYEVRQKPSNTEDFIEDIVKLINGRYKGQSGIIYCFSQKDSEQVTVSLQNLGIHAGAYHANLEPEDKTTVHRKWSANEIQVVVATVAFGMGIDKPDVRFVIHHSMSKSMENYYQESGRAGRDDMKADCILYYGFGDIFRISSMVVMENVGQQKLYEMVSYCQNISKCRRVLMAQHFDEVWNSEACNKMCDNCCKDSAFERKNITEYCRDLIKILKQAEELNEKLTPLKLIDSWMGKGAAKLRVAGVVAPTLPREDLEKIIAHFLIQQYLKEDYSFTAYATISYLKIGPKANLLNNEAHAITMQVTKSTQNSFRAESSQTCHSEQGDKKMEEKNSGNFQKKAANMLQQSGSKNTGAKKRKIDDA
Substance,tested on,test,test system,setting,scale,endpoint,result
"DNA 1 TGGGTGGGTAGGGTGGGTAGGGGAGGAT / DNA 2 ATCCTCCCCTA (DNA; intramolecular parallel G4, 5' overhang, 11-bp duplex)","REV1 330-833 D700N (Homo sapiens, UniProt Q9UBZ9)",FP,folded DNA,KCl 100 mM,,Kd,3 ± 0.9 nM
CAAATGTATGCACCATATCCATTCTAAACATAGTTTCAAGTCAATCGGTCC (dsDNA; 5'-amino-C6 primer),SPT15/TOA1/TOA2/SUA7 1-240; 1-286; 1-122; 1-345,array,"double-stranded DNA, one strand shown",TBP:TFIIA:TFIIB ternary complex,,Kd,1.62 ± 0.48 nM
"DNA 1 CACTGGCCGTCTTACGGTCGCTCTGCTCGACG / DNA 2 CGACCGTAAGACGGCCAGTG (dsDNA; 20 bp, 3' 12 nt overhang)","RECQL 63-592 (Homo sapiens, UniProt P46063)",fluorescence anisotropy,double-stranded DNA,with: Mg2+ 3 mM,,Kd,31 ± 6.54 nM
GAATTCCTATAAAGTAATGTGGAGCTCCGTTCGTCTCAAGTCAATCGGTCC (dsDNA; 5'-amino-C6 primer),SPT15/TOA1/TOA2/SUA7 1-240; 1-286; 1-122; 1-345,array,"double-stranded DNA, one strand shown",TBP:TFIIA:TFIIB ternary complex,,Kd,1.72 ± 0.57 nM
GGGAGAACUUCGACCAGAAGGACAUCUACGCAAAAGUGUUCCCCUGCCUGAUGUGACAAAUAUGUGCGCAUACAUGGAUCCUC (ssRNA; 2'-fluoro pyrimidines),integrin alphaV/beta3 31-992/27-718 (Homo sapiens),SPR,RNA,with: MnCl2 1 mM,higher = more binding,relative binding,83.2 RU
GAATTCCTGTAAAGTAATGTGGAGCTCCGTTCGTCTCAAGTCAATCGGTCC (dsDNA; 5'-amino-C6 primer),SPT15/TOA1/TOA2/SUA7 1-240; 1-286; 1-122; 1-345,array,"double-stranded DNA, one strand shown",TBP:TFIIA:TFIIB ternary complex,,Kd,3.75 ± 0.98 nM
GGGAGAACUUCGACCAGAAGAAAGACGGUACGCGACUCAACACCCGCCUCCGUCAGGUUUUAUGUGCGCAUACAUGGAUCCUC (ssRNA; 2'-fluoro pyrimidines),integrin alphaV/beta3 31-992/27-718 (Homo sapiens),SPR,RNA,with: MnCl2 1 mM,higher = more binding,relative binding,52.3 RU
CAGACAGACAGA (dsDNA),Fibroin-modulator-binding protein-1,ITC,"double-stranded DNA, one strand shown",,,Kd,6610 nM
BzATP,"P2X purinoceptor 7 (P2rx7, Rattus norvegicus, UniProt Q64663, I214A/Q143A)","ion current, agonist, two-electrode voltage clamp",Xenopus oocytes,100 µM,,normalized current,0.79 and 0.74 and 0.8
ACTAACTAACTA (dsDNA),Fibroin-modulator-binding protein-1,ITC,"double-stranded DNA, one strand shown",,,Kd,635 ± 36.2 nM
colistin,Pseudomonas aeruginosa,broth microdilution,clinical isolate RKI-No_493/15,,,MIC,1 µg/mL
GTTAGTTAGTTA (dsDNA),Fibroin-modulator-binding protein-1,ITC,"double-stranded DNA, one strand shown",,,Kd,1520 ± 66.9 nM
Peginesatide,UT7/EPO,"tyrosine phosphorylation, LC-MS/MS phosphoproteomics, GluC, refers to: CD2AP tyrosine 361",,"10 nM, 15 min, with: 10 U/mL EPO",relative to: vehicle,phosphorylation level,58 fold
GSGAGPETLV,human SCRIB PDZ3-4 tandem (MBP fusion),automated holdup,"peptide, crude extract","concentration not given, uncorrected, unit not given","relative to: biotin control resin, higher = stronger binding",binding intensity,0.526
methyl-β-cyclodextrin,"Sodium- and chloride-dependent glycine transporter 1 (SLC6A9, Homo sapiens, UniProt P48067)","transport activity, [3H]glycine uptake",,"3.5 mg/mL, 1 min, with: glycine 300 µM",higher = more transport,glycine uptake rate,57 a.u. and 43.5 a.u. and 47.5 a.u. and 47.9 a.u. and 43 a.u.
GGGAGAACUUCGACCAGAAGUGCCAAGCCAGGCAGCGUGCAUAAUCCGAGUAGACAUUUUUAUGUGCGCAUACAUGGAUCCUC (ssRNA; 2'-fluoro pyrimidines),integrin alphaV/beta3 31-992/27-718 (Homo sapiens),SPR,RNA,with: MnCl2 1 mM,higher = more binding,relative binding,65.1 RU
ACEQNPIYWARYADWLFTTPLLLLDLALLVDADEGT,,ex vivo fluorescence imaging,"peptide, BALB/c mice, 4T1 tumour-bearing, muscle","intravenous, 5 nmol, 4 h post-injection",higher = more uptake,mean fluorescence intensity,1210 ± 189 a.u.
GGCAGGCAGGCA (dsDNA),Fibroin-modulator-binding protein-1,ITC,"double-stranded DNA, one strand shown",,,Kd,14700 nM
11-deoxycorticosterone,CYP11B2 (human),"substrate binding, stopped-flow global kinetic fitting",purified enzyme,"3-state conformational selection model, with: 10-fold excess adrenodoxin",,rate constant k-2,15.7 ± 1.15 s⁻¹
GGGAGAACUUCGACCAGAAGUGGAACUACGCGACAAACUUCCCGCCUGUUCCACCUUAUGUAUGUGCGCAUACAUGGAUCCUC (ssRNA; 2'-fluoro pyrimidines),integrin alphaV/beta3 31-992/27-718 (Homo sapiens),SPR,RNA,with: MnCl2 1 mM,higher = more binding,relative binding,100 RU
GCAAGCAAGCAA (dsDNA),Fibroin-modulator-binding protein-1,ITC,"double-stranded DNA, one strand shown",,,Kd,12200 nM
"FNA / CGLSGLGVA-NH2 ([18F]FNA-labelled, C-amide)",,ex vivo gamma counting,"peptide, healthy mouse, ovaries",60 min post injection,,tissue uptake,0.45 %ID/g
GGGAGAACUUCGACCAGAAGGCUGUGUCUACGUCCGGAUUGGGGACCUGCACGGCCCAUGUAUGUGCGCAUACAUGGAUCCUC (ssRNA; 2'-fluoro pyrimidines),integrin alphaV/beta3 31-992/27-718 (Homo sapiens),SPR,RNA,with: MnCl2 1 mM,higher = more binding,relative binding,260 RU
RNA 1 CCGGGCGGGCGGGAGGGAC / RNA 2 GGCCUCCGGCCCCCCCG (dsRNA (Homo sapiens); duplex with bulges),"APEX1 full length assumed (Homo sapiens, UniProt P27695)",fluorescence titration,double-stranded RNA,"without Mg2+, with: none",,K1/2,400 ± 90 nM

# For quick reference, copied from above:
Substance,tested on,test,test system,setting,scale,endpoint,result
GGCAGGCAGGCA (dsDNA),Fibroin-modulator-binding protein-1,ITC,"double-stranded DNA, one strand shown",,,Kd,14700 nM
BzATP,"P2X purinoceptor 7 (P2rx7, Rattus norvegicus, UniProt Q64663, I214A/Q143A)","ion current, agonist, two-electrode voltage clamp",Xenopus oocytes,100 µM,,normalized current,0.79 and 0.74 and 0.8
